Experimental data pooled from the literature.
Each line is one published result; not all experiments were run side by side. Values joined by “and” are separate records of one study, mostly repeats; a detail may differ. ± marks the error that the study gave.
Organism: SARS-CoV-2

`Cc1oc2nc1C(=O)N[C@](C)(C(=O)NCCc1ccccc1)c1nc(c(C)o1)C(=O)N[C@](C)(C(=O)NCCc1ccccc1)c1nc(c(C)o1)C(=O)N[C@]2(C)C(=O)NCCc1ccccc1` has an inhibition of 0% (viral replication; Vero E6, NRC-03-nhCoV; 2.5 µM).
`CCCOP(=O)(O)Oc1c2c(c(OP(=O)(O)OCCC)c3c1C1CC3c3cc4c(cc31)C1CC4c3ccccc31)C1CC2c2cc3c(cc21)C1CC3c2ccccc21` has an IC50 of 15.6 µM (spike pseudoparticle entry; Caco-2).
`Oc1cc(O)c2c(c1)OC(c1ccc(O)c(O)c1)C(OC1(c3ccc(O)c(O)c3)Oc3cc(O)cc(O)c3C(O)C1O)C2` (stereo not drawn) gave a selectivity index of greater than 40 (Vero C1008; reference: CC50 over EC50).
`Oc1ccc(Br)cc1-c1nc2cc(C(F)(F)F)ccc2s1` — result for “viral RNA release reduction”: 90% (SB2; 10 µM).
`CC[C@H](C)[C@H](NC(=O)CNC(=O)[C@H](CO)NC(=O)CNC(=O)[C@H](CSSC[C@H](NC(C)=O)C(=O)NCC(=O)N[C@@H](CO)C(=O)NCC(=O)N[C@H](C(=O)N[C@@H](CO)C(=O)NCC(=O)N[C@H](C(=O)N[C@@H](CC(N)=O)C(=O)N[C@@H](C)C(=O)N[C@@H](CO)C(=O)N[C@H](C(=O)N[C@H](C(=O)N[C@@H](CC(N)=O)C(=O)N[C@H](C(=O)N[C@@H](CCC(N)=O)C(=O)N[C@@H](CCCCN)C(=O)N[C@@H](CCC(=O)O)C(=O)N[C@H](C(=O)N[C@@H](CCC(=O)O)C(=O)N[C@@H](CCCNC(=N)N)C(=O)N[C@@H](CC(C)C)C(=O)N[C@@H](CC(N)=O)C(=O)N[C@@H](CCCCN)C(=O)N[C@H](C(=O)N[C@@H](C)C(=O)N[C@@H](CCCCN)C(=O)N[C@@H](CCC(=O)O)C(=O)N[C@@H](CC(C)C)C(=O)N[C@@H](CC(N)=O)C(=O)N[C@@H](CCCCN)C(=O)N[C@@H](CO)C(=O)N[C@@H](CC(C)C)C(=O)N[C@H](C(=O)N[C@@H](CC(=O)O)C(=O)N[C@@H](CC(C)C)C(=O)N[C@@H](CCC(N)=O)C(=O)N[C@@H](CCC(=O)O)C(N)=O)[C@@H](C)CC)C(C)C)[C@@H](C)CC)[C@@H](C)CC)C(C)C)C(C)C)[C@@H](C)CC)[C@@H](C)CC)NC(C)=O)C(=O)N[C@@H](CO)C(=O)NCC(=O)N[C@H](C(=O)N[C@@H](CC(N)=O)C(=O)N[C@@H](C)C(=O)N[C@@H](CO)C(=O)N[C@H](C(=O)N[C@H](C(=O)N[C@@H](CC(N)=O)C(=O)N[C@H](C(=O)N[C@@H](CCC(N)=O)C(=O)N[C@@H](CCCCN)C(=O)N[C@@H](CCC(=O)O)C(=O)N[C@H](C(=O)N[C@@H](CCC(=O)O)C(=O)N[C@@H](CCCNC(=N)N)C(=O)N[C@@H](CC(C)C)C(=O)N[C@@H](CC(N)=O)C(=O)N[C@@H](CCCCN)C(=O)N[C@H](C(=O)N[C@@H](C)C(=O)N[C@@H](CCCCN)C(=O)N[C@@H](CCC(=O)O)C(=O)N[C@@H](CC(C)C)C(=O)N[C@@H](CC(N)=O)C(=O)N[C@@H](CCCCN)C(=O)N[C@@H](CO)C(=O)N[C@@H](CC(C)C)C(=O)N[C@H](C(=O)N[C@@H](CC(=O)O)C(=O)N[C@@H](CC(C)C)C(=O)N[C@@H](CCC(N)=O)C(=O)N[C@@H](CCC(=O)O)C(N)=O)[C@@H](C)CC)C(C)C)[C@@H](C)CC)[C@@H](C)CC)C(C)C)C(C)C)[C@@H](C)CC` gave an IC50 ratio of 2.52 (viral replication; VeroE6/TMPRSS2, ancestral Wuhan; reference: compound over corresponding monomer).
`Cc1ccc(N2CC(N3CCC(C)(O)CC3)C2)cc1C(=O)NC1(c2ccc3c4c(cccc24)C(=O)N3C)CC1` has an inhibition of 0% (viral replication; Vero C1008, Omicron BA.5; 0.005716 µM).
`O=C[C@H](C[C@@H]1CCNC1=O)NC(=O)[C@H](Cc1cccc(F)c1)NC(=O)c1cc2ccccc2[nH]1` gave a selectivity index of greater than 139 (Vero C1008; reference: CC50 over EC50).
`Cc1ccc(N2CC3CC(C2)N3C)cc1C(=O)NC1(c2ccc3c4c(cccc24)C(=O)N3C)CC1` has an inhibition of 0% (viral replication; Vero C1008, Omicron BA.5; 0.005716 µM, 72 h).
With `Cc1oc2nc1C(=O)N[C@](C)(C(=O)OC(C)C)c1nc(c(C)o1)C(=O)N[C@](C)(C(=O)OC(C)C)c1nc(c(C)o1)C(=O)N[C@]2(C)C(=O)OC(C)C` the inhibition was 52% (viral adsorption; Vero E6, NRC-03-nhCoV; 20 µM).
The viral titre of `CC(C)(C)NC(=O)[C@@H](c1cccnc1)N(C(=O)c1ccco1)c1ccc(C(C)(C)C)cc1` is reported as 1.04e+06 IU/mL (Vero; 1 µM).
The inhibition of `Cc1ccc(N2CC3CC(C2)N3)cc1C(=O)NC1(c2ccc3c4c(cccc24)C(=O)N3C)CC1` is reported as 10% (viral replication; Vero C1008, wild type; 0.005716 µM).
For `O=C(CCCCCCc1ccc(O)c(O)c1)c1c(O)cccc1O`, the selectivity index was 14.2 (Vero E6/TMPRSS2, WK-521 ancestral; reference: CC50 over EC50).
`CCCC/C=C/C(=O)N[C@@H](Cc1csc2ccccc12)C(=O)N[C@H]1COC(=O)[C@@H]2C[C@@H](C)CN2C(=O)[C@H](C)NC(=O)[C@@H]2CCCCN2C(=O)[C@@H]2CCCN2C1=O` has an RNA release of 0.524 and 0.578 and 0.417 (Huh-7 CLPP knock-out 1; concentration not given, 6 h, unit not given; reference: DMSO).
The inhibition of `Cc1ccc(N2CCN(C)CC2)cc1C(=O)NC1(c2ccc3c4c(cccc24)CC3)CC1` is reported as 0% (viral replication; Vero C1008, XBB.1; 0.01715 µM).
For `O=C(c1ccc([N+](=O)[O-])c(-n2ccnc2)c1)N(c1cccc(Cl)c1)c1nc2ccccc2s1`, the selectivity index was greater than 7 (A549-ACE2; reference: CC50 over EC50).
With `CC(C)C(=O)OC[C@H]1O[C@@](C#N)(n2ccc(N)nc2=O)[C@H](O)[C@@H]1O` the EC90 was 4.8 ± 0.1 µM (viral replication, qRT-PCR of viral RNA; Vero, Washington).
With `Cc1oc2nc1C(=O)N[C@](C)(C(=O)O)c1nc(c(C)o1)C(=O)N[C@](C)(C(=O)O)c1nc(c(C)o1)C(=O)N[C@]2(C)C(=O)O` the inhibition was 12% (virucidal activity; Vero E6, NRC-03-nhCoV; 5 µM).
The selectivity index of `O=C1C(O)=C(Nc2cccc(C(F)(F)F)c2)C(=O)c2ccccc21` is reported as 120 ± 30 (Calu-3 and HepG2; reference: HepG2 CC50 over antiviral EC50).
`Brc1c(Br)c(Br)c2[nH]nnc2c1Br` — result for selectivity index: “inactive” (Huh-7; reference: CC50 over EC50).
The antiviral activity of `CC[C@H](C)[C@@H]1NC(=O)[C@H](Cc2c[nH]c3ccccc23)NC(=O)[C@H](C)NC(=O)[C@H](CC(N)=O)NC(=O)[C@H](Cc2ccc(O)cc2)NC(=O)CNC(=O)[C@H](Cc2ccc(O)cc2)NC(=O)[C@H](C(C)C)NC(=O)[C@H](C(C)C)NC(=O)CNC(=O)[C@H](C)NC(=O)[C@H](CCCCN)NC(=O)[C@@H](Cc2ccc(O)cc2)NC(=O)CSC[C@@H](C(N)=O)NC(=O)[C@H](CCCNC(=N)N)NC1=O` is reported as greater than 10 µM (viral replication; Vero E6).
`O=P(O)(O)Oc1c2c(c(OP(=O)(O)O)c3c1C1CC3c3cc4c(cc31)C1CC4c3ccccc31)C1CC2c2cc3c(cc21)C1CC3c2ccccc21` — result for “time to maximum inhibition”: 5 h (spike pseudovirus entry).
For `CC(C)CC(C(=O)N1CC2(CC1C#N)C(=O)Nc1ccccc12)N(C)C(=O)c1cc2c(F)cc(F)c(F)c2[nH]1` (stereo not drawn), the inhibition was 108% and 110% and 94.6% (viral replication; Vero E6; 0.3333 µM).
With `Cc1ccc(N2CC(N3CCC(C)(O)CC3)C2)cc1C(=O)NC1(c2ccc3c4c(cccc24)CC3)CC1` the inhibition was 5% (viral replication; Vero C1008, Omicron BA.5; 0.1543 µM).
With `C[C@@H]1O[C@@H](n2c3ccccc3c3c4c(c5c6ccccc6[nH]c5c32)CNC4=O)C[C@@H](N)[C@H]1O` the EC50 was 0.282 µM (viral replication; mNeonGreen reporter).

Some of these lines once more:
`Cc1oc2nc1C(=O)N[C@](C)(C(=O)NCCc1ccccc1)c1nc(c(C)o1)C(=O)N[C@](C)(C(=O)NCCc1ccccc1)c1nc(c(C)o1)C(=O)N[C@]2(C)C(=O)NCCc1ccccc1` has an inhibition of 0% (viral replication; Vero E6, NRC-03-nhCoV; 2.5 µM).
`CCCOP(=O)(O)Oc1c2c(c(OP(=O)(O)OCCC)c3c1C1CC3c3cc4c(cc31)C1CC4c3ccccc31)C1CC2c2cc3c(cc21)C1CC3c2ccccc21` has an IC50 of 15.6 µM (spike pseudoparticle entry; Caco-2).
`Oc1cc(O)c2c(c1)OC(c1ccc(O)c(O)c1)C(OC1(c3ccc(O)c(O)c3)Oc3cc(O)cc(O)c3C(O)C1O)C2` (stereo not drawn) gave a selectivity index of greater than 40 (Vero C1008; reference: CC50 over EC50).
`Oc1ccc(Br)cc1-c1nc2cc(C(F)(F)F)ccc2s1` — result for “viral RNA release reduction”: 90% (SB2; 10 µM).
